# Measurements of several laboratories.
# Every numbered part comes from another study and shows a few of its results, in no order.

# Series 1
# Target: Histone acetyltransferase KAT6A, winged helix 1, GST fusion (KAT6A, Homo sapiens, UniProt Q92794, residues 1-85)
# Technique: protein binding microarray
# Molecule type: double-stranded DNA, one strand shown
# Sample: in vitro
# Concentration: not given
# Setting: 8-mer, flanks averaged, mean of 2 arrays, mostly near background
# Relative to: not given
# Reading: higher = stronger binding
# Target sequence (chain): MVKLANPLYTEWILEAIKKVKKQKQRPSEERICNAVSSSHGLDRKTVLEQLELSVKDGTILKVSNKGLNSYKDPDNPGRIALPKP
Oligonucleotide,E-score
CGGGGCGC,0.405
ACACTAGC,0.0337
CTACTTAC,-0.0588
ATCCAGAA,-0.216

# Series 2
# Target: Sal-like protein 4, full length isoform A (SALL4, Homo sapiens, UniProt Q9UJQ4, residues 1-1053)
# UniProt Q9UJQ4, sequence (whole entry, looked up): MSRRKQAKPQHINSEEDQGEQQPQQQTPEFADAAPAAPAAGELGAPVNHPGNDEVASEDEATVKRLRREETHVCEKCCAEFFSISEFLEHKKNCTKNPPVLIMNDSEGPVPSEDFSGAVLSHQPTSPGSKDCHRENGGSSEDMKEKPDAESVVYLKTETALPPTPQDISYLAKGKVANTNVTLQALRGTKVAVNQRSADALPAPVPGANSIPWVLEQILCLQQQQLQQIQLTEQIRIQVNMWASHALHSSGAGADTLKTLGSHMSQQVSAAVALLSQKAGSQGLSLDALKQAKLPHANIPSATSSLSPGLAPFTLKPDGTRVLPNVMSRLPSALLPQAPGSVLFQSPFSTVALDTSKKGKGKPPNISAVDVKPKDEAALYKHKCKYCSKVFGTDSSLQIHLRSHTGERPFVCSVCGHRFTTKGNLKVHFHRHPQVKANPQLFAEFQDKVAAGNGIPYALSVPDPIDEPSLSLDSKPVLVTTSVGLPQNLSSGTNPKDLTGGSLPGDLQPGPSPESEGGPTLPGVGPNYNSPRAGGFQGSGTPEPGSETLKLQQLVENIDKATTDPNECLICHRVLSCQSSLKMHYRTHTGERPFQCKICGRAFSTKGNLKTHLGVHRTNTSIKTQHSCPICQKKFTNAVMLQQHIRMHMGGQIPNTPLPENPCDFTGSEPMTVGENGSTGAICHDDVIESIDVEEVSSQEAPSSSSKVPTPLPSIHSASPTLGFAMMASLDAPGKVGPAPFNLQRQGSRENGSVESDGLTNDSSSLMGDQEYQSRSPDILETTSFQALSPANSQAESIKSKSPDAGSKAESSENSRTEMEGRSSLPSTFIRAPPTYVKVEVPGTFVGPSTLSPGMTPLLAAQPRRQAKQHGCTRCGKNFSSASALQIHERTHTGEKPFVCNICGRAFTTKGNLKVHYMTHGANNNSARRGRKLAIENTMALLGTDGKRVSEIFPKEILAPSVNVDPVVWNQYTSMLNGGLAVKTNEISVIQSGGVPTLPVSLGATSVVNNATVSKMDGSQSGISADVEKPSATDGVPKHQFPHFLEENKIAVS
# Technique: universal PBM
# Molecule type: double-stranded DNA, one strand shown
# Sample: in vitro
# Concentration: 600 nM
# Setting: 8-mer, flanks averaged, mean of replicates
# Reading: higher = stronger binding
Oligonucleotide,E-score
GGGTTTGA,-0.00807
ATCTGGCA,0.0111
GCCCCGCA,-0.358
AACTACAT,0.192
ACCCACGT,-0.2

# Series 3
# Target: Interferon regulatory factor 7, full length, phosphomimetic (IRF7, Homo sapiens, UniProt Q92985, residues 1-503, S471D/S472D/S475D/S476D/S477D/S483D/S484D/S487D)
# Technique: protein-binding microarray
# Molecule type: double-stranded DNA, one strand shown
# Sample: in vitro
# Concentration: 2200 nM top
# Setting: 60-bp whole probe
# Together with: salmon DNA 0.4 mg/ml
# Relative to: random background probes
# Reading: higher = stronger binding
# Residues (chain): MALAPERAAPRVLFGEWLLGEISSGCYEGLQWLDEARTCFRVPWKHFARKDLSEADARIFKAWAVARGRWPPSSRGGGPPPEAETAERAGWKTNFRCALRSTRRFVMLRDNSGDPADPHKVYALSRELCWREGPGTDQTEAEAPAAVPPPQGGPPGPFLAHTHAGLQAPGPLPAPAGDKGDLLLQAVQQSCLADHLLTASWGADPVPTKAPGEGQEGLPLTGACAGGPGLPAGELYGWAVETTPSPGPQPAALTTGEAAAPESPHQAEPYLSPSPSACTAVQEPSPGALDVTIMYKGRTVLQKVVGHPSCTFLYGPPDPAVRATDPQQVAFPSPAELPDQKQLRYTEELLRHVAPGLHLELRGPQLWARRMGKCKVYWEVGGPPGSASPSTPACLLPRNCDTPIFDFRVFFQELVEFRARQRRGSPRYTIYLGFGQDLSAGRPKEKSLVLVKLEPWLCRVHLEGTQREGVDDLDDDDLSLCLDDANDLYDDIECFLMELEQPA
Oligonucleotide,fitted relative affinity [z-score]
GCCTAGCACGACGGTCTCCTTTTACTGACGTGCTAGGTCTTGATTCGCTTGACGCTGCTG,1.41
GCCTAGCACGACGGACTGCTTATCCTGGCGTGCTAGGTCTTGATTCGCTTGACGCTGCTG,0.165
GCCTAGCACGACGGTTTCAACTTTCGGGACGTGCTAGTCTTGATTCGCTTGACGCTGCTG,4.73

# Further values, each from its own experiment
Substance,target,assay,test system,conditions,scale,endpoint,result
"PhoQ, residues 284 288 289 292 302 303 AANNSF","PhoP, residues 12 14 15 18 19 SQCLL (Escherichia coli, UniProt P23836)","Sort-seq, item: YFP reporter",E. coli,"PhoQ-PhoP variant library, together with: 10 µM Mg2+","relative to: high Mg2+ state, higher = stronger signaling",fold induction,13.8

# For quick reference, copied from above (series 1):
Oligonucleotide,E-score
ATCCAGAA,-0.216
